Measurements gathered from unrelated publications.
Parts stem from different laboratories: compare values within a part only.

Study 1
Target: Centromere-binding protein 1, full length, His-tagged (CBF1, Saccharomyces cerevisiae, UniProt P17106, residues 1-351)
Sequence of UniProt P17106 (whole entry, looked up): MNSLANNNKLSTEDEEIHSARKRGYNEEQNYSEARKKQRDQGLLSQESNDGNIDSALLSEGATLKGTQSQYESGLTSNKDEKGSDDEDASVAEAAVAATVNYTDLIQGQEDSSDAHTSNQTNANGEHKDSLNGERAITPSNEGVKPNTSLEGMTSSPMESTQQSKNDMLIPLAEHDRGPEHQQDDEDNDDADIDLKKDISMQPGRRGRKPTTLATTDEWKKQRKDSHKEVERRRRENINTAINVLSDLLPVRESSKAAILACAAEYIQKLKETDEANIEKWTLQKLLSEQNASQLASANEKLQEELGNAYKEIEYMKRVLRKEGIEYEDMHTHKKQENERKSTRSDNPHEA
Method: competition protein-binding microarray
Form: double-stranded DNA, one strand shown
Sample: in vitro
Tested at: 2 µM
Notes: whole 60-bp probe, lowest competitor level
Added: Pho4 competitor, 0.05 µM
Reading: higher = stronger binding
Constant ends, left off below: … GTCTTGATTCGCTTGACGCTGCTG
Sequence	fluorescence intensity [a.u.]
CCGACCACTGGGATCCACATGTCCTTGTCTCTCAGG	80.3
AAATTACTAAGTTGTCTAGTGGGTGACGCCGTATGA	62.3
CTACCGTCAAATATACACGTGTAGTCCCTGGATTTG	1250
GTCTTGTCTCATTGTAGGGTGGGTGTCCCCACTTCA	57.4
CGTCCTAGTGATTGTTCAGTGGGTGCCATGAGGAAG	86.7
TTATATCAACCGTATGGCGTGCTTTAGCTGCAATAA	84
TCAGCTCTTAGATGTAATGTGACGGCAGCCATTTTT	87.3

Study 2
Target: Histone acetyltransferase KAT6A, both winged helices, GST fusion (KAT6A, Homo sapiens, UniProt Q92794, residues 1-181)
Method: protein binding microarray
Form: double-stranded DNA, one strand shown
Sample: in vitro
Tested at: not given
Notes: 8-mer, flanks averaged, mean of 2 arrays, mostly near background
Reference: not given
Reading: higher = stronger binding
Target sequence (chain): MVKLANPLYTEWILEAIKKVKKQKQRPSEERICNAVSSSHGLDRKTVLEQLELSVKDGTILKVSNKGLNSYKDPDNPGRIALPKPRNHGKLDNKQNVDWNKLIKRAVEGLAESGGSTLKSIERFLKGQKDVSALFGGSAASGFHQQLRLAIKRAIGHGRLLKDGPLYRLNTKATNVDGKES
Sequence	E-score
TGCAGACA	-0.122
CGTACAGC	0.239
CTGTGCCA	-0.152
GGGACAAA	-0.044
AACTCGAT	-0.142
CATATAAC	-0.00539
AAGTAGGA	-0.217
AACTTTGT	0.052
ACGTCTTC	0.0416
AGGAGGTA	-0.208

Study 3
Target: Sal-like protein 4, full length isoform A (SALL4, Homo sapiens, UniProt Q9UJQ4, residues 1-1053)
Sequence of UniProt Q9UJQ4 (whole entry, looked up): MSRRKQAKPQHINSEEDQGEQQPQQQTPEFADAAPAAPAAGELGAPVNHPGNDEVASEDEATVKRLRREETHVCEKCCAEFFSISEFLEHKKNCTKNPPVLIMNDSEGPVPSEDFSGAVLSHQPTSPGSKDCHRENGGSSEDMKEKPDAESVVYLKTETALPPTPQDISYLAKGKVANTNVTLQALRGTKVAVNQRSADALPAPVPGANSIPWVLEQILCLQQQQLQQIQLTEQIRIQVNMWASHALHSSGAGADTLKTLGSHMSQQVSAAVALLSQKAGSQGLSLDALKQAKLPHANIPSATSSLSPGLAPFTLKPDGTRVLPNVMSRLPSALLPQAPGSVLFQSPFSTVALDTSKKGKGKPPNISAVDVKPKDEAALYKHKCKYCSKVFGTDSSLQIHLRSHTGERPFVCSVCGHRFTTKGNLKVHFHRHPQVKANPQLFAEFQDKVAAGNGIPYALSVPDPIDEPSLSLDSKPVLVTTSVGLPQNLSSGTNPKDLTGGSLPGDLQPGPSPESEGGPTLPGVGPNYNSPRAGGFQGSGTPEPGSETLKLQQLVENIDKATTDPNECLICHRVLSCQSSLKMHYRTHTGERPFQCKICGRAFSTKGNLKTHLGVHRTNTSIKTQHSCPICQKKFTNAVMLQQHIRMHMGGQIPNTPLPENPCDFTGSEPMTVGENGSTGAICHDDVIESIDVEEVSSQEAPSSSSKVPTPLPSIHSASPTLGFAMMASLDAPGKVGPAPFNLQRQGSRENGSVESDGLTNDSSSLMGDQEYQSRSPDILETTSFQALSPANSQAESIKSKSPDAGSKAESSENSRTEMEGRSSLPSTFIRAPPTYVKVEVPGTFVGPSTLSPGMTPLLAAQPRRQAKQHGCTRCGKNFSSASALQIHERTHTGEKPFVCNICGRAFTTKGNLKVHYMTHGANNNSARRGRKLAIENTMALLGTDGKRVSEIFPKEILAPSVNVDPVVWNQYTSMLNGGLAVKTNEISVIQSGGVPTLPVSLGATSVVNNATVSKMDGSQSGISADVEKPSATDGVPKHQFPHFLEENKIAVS
Method: universal PBM
Form: double-stranded DNA, one strand shown
Sample: in vitro
Tested at: 600 nM
Notes: 8-mer, flanks averaged, mean of replicates
Reading: higher = stronger binding
Sequence	E-score
GTGAGTTA	-0.0198
AACGAGTT	0.0136
ATAATCCG	0.193
AAGTTAGA	0.204
GAGATGCC	-0.218
CTCAAAAA	0.167

Further values, each from its own experiment
Substance	target	test	test system	conditions	scale	measurement	result
PhoQ, residues 284 288 289 292 302 303 ASVMEA	PhoP, residues 12 14 15 18 19 LHHSG (Escherichia coli, UniProt P23836)	Sort-seq, refers to: YFP reporter	E. coli	PhoQ-PhoP variant library, added: 10 µM Mg2+	reference: high Mg2+ state, higher = stronger signaling	fold induction	29.1
